Measured values collected from several papers.
Lines come from different studies, so protocols differ. pIC50: −log10 of the molar value.
Target: Cytochrome P450 2C9 (CYP2C9, Homo sapiens, UniProt P11712)
UniProt P11712, sequence (whole entry, looked up): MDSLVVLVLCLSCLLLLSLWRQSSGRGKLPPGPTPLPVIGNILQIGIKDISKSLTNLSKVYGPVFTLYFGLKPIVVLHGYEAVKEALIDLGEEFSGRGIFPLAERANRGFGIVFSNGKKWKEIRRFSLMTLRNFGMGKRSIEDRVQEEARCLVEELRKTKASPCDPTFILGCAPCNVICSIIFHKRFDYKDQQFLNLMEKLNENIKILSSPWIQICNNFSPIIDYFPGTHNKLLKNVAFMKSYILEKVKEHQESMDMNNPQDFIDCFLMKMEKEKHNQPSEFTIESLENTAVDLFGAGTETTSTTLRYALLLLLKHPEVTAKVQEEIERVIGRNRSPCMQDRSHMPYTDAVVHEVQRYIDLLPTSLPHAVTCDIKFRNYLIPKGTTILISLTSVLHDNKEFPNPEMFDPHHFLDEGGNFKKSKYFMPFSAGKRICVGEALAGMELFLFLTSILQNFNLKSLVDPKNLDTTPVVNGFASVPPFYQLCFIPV

The pIC50 of O=C(NC1CCC(F)(F)CC1)C(c1cncnc1)N(C(=O)C(F)Cl)c1ccc(OC(F)(F)F)cc1 (centres unmarked) is reported as 4.44 (enzyme activity, inhibitor; 10 (unit not given)).
The pIC50 of CCC1(CC)CC(=O)N(C2c3cc(C(=O)NC4c5ccccc5CC4O)ccc3OC2(C)COC)C(=N)N1 (centres unmarked) is reported as < 4.70 (enzyme activity, inhibitor).
With OCC1OC(n2cnc3c(NCc4ccc(Br)s4)ncnc32)C(O)C1O (centres unmarked) the pIC50 was 4.75 (enzyme activity, inhibitor, fluorescence; pH 7.4).
For N=C(N)SCc1ccccc1CSC(=N)N, the pIC50 was < 5.00 (enzyme activity, inhibitor).
With Cc1[nH]nc2c1N=C(c1ccccc1Cl)c1cnc(N3CCOCC3)cc1N2 the pIC50 was 5.33 (enzyme activity, inhibitor; human, liver microsomes).
The pIC50 of O=C(c1ccc(-c2cccc(C(F)(F)F)c2)cc1)N1CCN(c2ncccn2)CC1 is reported as 5.10 (enzyme activity, inhibitor).
The pIC50 of C[C@H]1CN(C(=O)c2cn(-c3ccnc(N)n3)c3cc(C#CC4(O)CCCCC4)ccc23)CCN1 is reported as < 4.30 (10 min).
For COc1ccc2c(c1OC)O[C@H]1c3ccc(O)cc3OC[C@@H]21, the pIC50 was 4.41 (enzyme activity, inhibitor; human, liver microsomes; 15 min).
CC(C)(C)n1ncc2c(=O)n(Cc3cccc(F)c3)c(NCc3ccc(F)cn3)nc21 gave a pIC50 of 5.10 (enzyme activity, inhibitor).
CCC1(CC)CC(=O)N(C2CCOc3ccc(C(=O)NC4CC(C)(C)Oc5ccccc54)cc32)C(=N)N1 (centres unmarked) gave a pIC50 of < 4.70 (enzyme activity, inhibitor).
The pIC50 of C=C(NC(=O)c1csc(-c2nc3c(cc2O)-c2nc(cs2)C(=O)NC(C(C)O)C(=O)NC(=C(C)OC)c2nc(cs2)C(=O)NC2c4nc(cs4)C(=O)NC(COC(=O)c4c5c6c(cccc6n4O)COC(=O)C(OC4CC(C)(O)C(N(C)C)C(C)O4)C2OC5)c2nc-3cs2)n1)C(N)=O (centres unmarked) is reported as < 4.30 (enzyme activity, inhibitor; human, liver microsomes; pH 7.4).

Repeated from above:
The pIC50 of O=C(NC1CCC(F)(F)CC1)C(c1cncnc1)N(C(=O)C(F)Cl)c1ccc(OC(F)(F)F)cc1 (centres unmarked) is reported as 4.44 (enzyme activity, inhibitor; 10 (unit not given)).
